# Assay results gathered from unrelated publications.
# Every numbered part comes from another study and shows a few of its results, in no order.

# Set 1 — technique: protein-binding microarray; molecule type: double-stranded DNA, one strand shown; sample: in vitro; tested at: 940 nM top; notes: 60-bp whole probe; together with: salmon DNA 0.4 mg/ml; relative to: random background probes; direction: higher = stronger binding; constant ends, left off below: GCCTAGCAC … GTCTTGATTCGCTTGACGCTGCTG
# Target: Interferon regulatory factor 5, full length, phosphomimetic (IRF5, Homo sapiens, UniProt Q13568-2, residues 1-514, S451D/S453D/S456D/S462D)
Oligonucleotide,fitted relative affinity [z-score]
GACGGCTTCCTACTGCTGACGTGCTAG,-0.352
TACGGTCTCCTTCTCCTGACGTGCTAG,0.421
GACGGTTTCCTACTTCTGACGTGCTAG,1.07
TTAGGTCTCGGTCTCGCTTAGTGCTAG,5.09
GACGGTTTCGGGTTTCGGGACGTGCTA,8.86
TCAACACTAATTTTCAAACTGTGCTAG,0.809
TTAGATTTCAGTAACGATTAGTGCTAG,0.752
TCAATTTTGTGTCTGGGACTGTGCTAG,-0.261
CTGTTTTTGCTTTCTTTATGGTGCTAG,2.98
TTGGATTTCAGTCTCGATTAGTGCTAG,4.24
TGAGATATCGGGTATCGATTAGTGCTA,3.31
TTAGTTTTCGGTCTCGGTTAGTGCTAG,6.13
GACCAACTGAGTTTCGAGACGTGCTAG,3.47
GACGTACTGCTACTGCTGACGTGCTAG,-0.456
TTACTTCCCAATAATCTTTTCGTGCTA,1.79
TTAGATTCCAGCTTCGATTAGTGCTAG,0.0807
TTATGTATCGGTATCGGTTAGTGCTAG,6.92
GACGGTATCGGTCTCGGAACGTGCTAG,8.66
TTAGGACTGCTTTTCATTTAGTGCTAG,0.00564
TCACCCTTTGCTTTCCTACTGTGCTAG,1.34
GACGGTTTCGGGTATCGCGACGTGCTA,9.52
GACGGTATCGACTACCGGGACGTGCTA,5.96

# Set 2 — technique: universal PBM; molecule type: double-stranded DNA, one strand shown; sample: in vitro; tested at: 600 nM; direction: higher = stronger binding
# Target: Sal-like protein 4, full length isoform A (SALL4, Homo sapiens, UniProt Q9UJQ4, residues 1-1053)
# Sequence of UniProt Q9UJQ4 (whole entry, looked up): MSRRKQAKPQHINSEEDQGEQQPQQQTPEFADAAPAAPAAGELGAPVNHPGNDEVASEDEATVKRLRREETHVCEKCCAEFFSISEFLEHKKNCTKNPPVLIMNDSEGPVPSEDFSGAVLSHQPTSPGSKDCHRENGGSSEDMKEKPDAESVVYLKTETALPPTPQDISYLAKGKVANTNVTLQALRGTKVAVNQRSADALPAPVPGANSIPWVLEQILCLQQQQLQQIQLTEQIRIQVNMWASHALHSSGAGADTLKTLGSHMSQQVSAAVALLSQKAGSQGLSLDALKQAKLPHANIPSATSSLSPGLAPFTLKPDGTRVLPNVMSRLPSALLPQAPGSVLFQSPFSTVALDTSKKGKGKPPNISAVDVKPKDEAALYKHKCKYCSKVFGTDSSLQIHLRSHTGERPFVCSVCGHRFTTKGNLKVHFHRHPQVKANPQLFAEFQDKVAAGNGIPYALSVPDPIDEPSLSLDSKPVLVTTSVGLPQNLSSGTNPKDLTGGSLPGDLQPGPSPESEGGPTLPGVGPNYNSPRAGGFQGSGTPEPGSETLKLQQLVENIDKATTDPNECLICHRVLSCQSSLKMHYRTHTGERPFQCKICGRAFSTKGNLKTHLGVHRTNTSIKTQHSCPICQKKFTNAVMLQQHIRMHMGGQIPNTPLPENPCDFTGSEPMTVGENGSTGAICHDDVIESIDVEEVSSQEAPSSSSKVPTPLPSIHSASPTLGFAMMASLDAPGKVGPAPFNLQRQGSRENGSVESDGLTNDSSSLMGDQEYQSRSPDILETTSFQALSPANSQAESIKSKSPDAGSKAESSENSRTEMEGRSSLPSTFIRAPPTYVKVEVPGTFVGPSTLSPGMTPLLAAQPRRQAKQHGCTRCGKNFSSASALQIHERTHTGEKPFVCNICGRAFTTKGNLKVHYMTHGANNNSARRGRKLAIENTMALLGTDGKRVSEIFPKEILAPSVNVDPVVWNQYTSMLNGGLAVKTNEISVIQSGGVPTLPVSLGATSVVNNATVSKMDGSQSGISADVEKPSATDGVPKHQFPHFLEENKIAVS
# Notes: 8-mer, flanks averaged, mean of replicates
Oligonucleotide,E-score
GTTGATCA,0.0285
ATTATGTA,0.347
CCAAGCAC,-0.0878
AACAGAGG,-0.0933
ATTCAAAG,0.172
CGCGACTC,-0.177
GGCACTCA,-0.13
GCACGGGA,-0.292
CTACTGCC,-0.152
CCACGTCG,-0.309
GCTTTCGA,-0.152
ACGTACAC,0.0519
GTGAAGTA,0.158
ACGAAGGA,0.049
AGGCTGAC,-0.171
AGCCTGCG,-0.28
CCTGGAAC,-0.127
CAGCCGAC,-0.283
GCTAACTA,0.11
CGATTGGC,-0.0435
ACCCGTTA,0.0586
AGTTCGCA,-0.154
GGCTCTAC,-0.159
ACGTTAGA,0.16
AAAAGTTT,0.229

# Set 3 — technique: protein binding microarray; molecule type: double-stranded DNA, one strand shown; sample: in vitro; tested at: not given; relative to: not given; direction: higher = stronger binding
# Target: Histone acetyltransferase KAT6A, winged helix 2, GST fusion (KAT6A, Homo sapiens, UniProt Q92794, residues 85-181)
# Notes: 8-mer, flanks averaged, mean of 2 arrays, mostly near background
# Residues (chain): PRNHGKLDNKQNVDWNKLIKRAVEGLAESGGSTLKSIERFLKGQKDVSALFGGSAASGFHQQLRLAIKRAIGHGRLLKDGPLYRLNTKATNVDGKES
Oligonucleotide,E-score
ACATTCAT,-0.204
GTAGTAGA,0.0377
CATTCTTC,-0.102
GCTCGTCC,0.161
ATTAAAAG,0.0419
GACACACA,0.0699
ACTTCAGG,-0.101
AGAACAAT,0.112
AGAACCTC,0.0425
AGCCTATA,-0.0787
CAGGGAAC,-0.000885
CACCATCA,-0.119
CTAATATC,0.0283
GTCATGGA,-0.0488
ATGGTGGG,0.0434
ATAACTAG,-0.126
CCAGCCTA,0.00503
ATAGGGCA,-0.166
CAAGCGTA,0.0255

# Set 4 — technique: RNA Bind-n-Seq; molecule type: RNA; sample: in vitro; tested at: 200 nM; notes: whole 134-nt RNA, ends assumed; together with: 150 mM LiCl; relative to: input library; direction: higher = stronger binding; all molecules: 7-deaza-guanosine replaces G
# Target: Fragile X messenger ribonucleoprotein 1, C-terminal low-complexity region (Fmr1, Mus musculus, UniProt P35922)
# Constant ends, left off below: GGGAGUUCUACAGUCCGACGAUC … UGGAAUUCUCGGGUGUCAAGG
Oligonucleotide,log2 enrichment
UAACUUUAGAGGAGGAUCUGAUGGAUAUGGCAGUGGACGUGGUUUUGGGGAUGGCUAUAAUGGGUAUGGAGGAGGACCUGGAGGUGGCAA,0.528
UGGCCCUGGUGGCAUGCGGGGAGGAAGAGGUGGCCUCAUGGAUCGGGGUGGUCCCGGUGGAAUGUUCAGAGGUGGCCGUGGUGGAGACAG,-0.692
AACUAAUACUCUUAAAUGGUCUUUCAGUAUAGUGGUUCUUACGUAGUUUAACAUAGCUAUAAAUUGAGUUUAACAAUUUAUAAACUCAAG,0.473
GUCCUGUGCUACACAUCGUAUGUACCGAAUCGGGGUUUUUGGUUUUUGGGUUUUUGGGAAAGUAUUAUGUUACGCCGUUCGGAUCUGCAC,-1.22
UAACUUUAGAGGAGGAUCUGAUGGAUAUGGCAGUGGACGUGGAUUUGGGGAUGGCUAUAAUGGGUAUGGAGGAAGACCUGGAGGUGGCAA,-0.209
UGCCAUGGACAAUAUUACCAGGCAGAACCAAUUCUACGAUACCCAAGUCAUCAAACAAGAAAACGAGUCAGGCUACGAGAGGAGACCACU,0.516
UAACUUUAGAGGAGGAUCUGAUUGAUAUGGCAGUGGACGUGGAUUUGGGGAUGGCUAUAAUGGGUAUGGAGGAGGACCUGGAGGUGGCAA,0.15
UGGCCCGCCGUCCUGAGGAAGCUGAGGUUCACUGCGGUGCCCAAGAACCACCAGGCGGUCCGGAACCCGUGAGCGGCUGCCAGGGGCUCU,-0.0683
UGGGAGGAGGAUUUUGUUUAUUUUUUUAGCUCAUUUCCAGGGGUGGGAAUUUUUUUUUAAUAUGUGUCAUGAAUAAAGUUGUUUUUGAAA,0.168
UCCUGUGCUACACAUCGUAUGUACCGAAUCGGGGAGGGGUUUUUUUGGGGAAAAAGGGGAAAGUAUUAUGUUACGCCGUUCGGAUCUGCA,-0.427
GCAGGAAGUAAAAACAAAUGGAAAUGCUUCGGAUAGUGGCAGGGGGGGGGGUUGCUAAGGAAAGGGUGGGAUGGGAGUGGGUAAAGAGUU,1.6

# Set 5 — technique: RNA Bind-n-Seq; molecule type: RNA; sample: in vitro; tested at: 365 nM; relative to: no-protein control; direction: higher = stronger binding
# Target: RNA binding protein fox-1 homolog 2, RRM domain, GST-SBP tag (RBFOX2, Homo sapiens, UniProt O43251-10, residues 100-194)
# Notes: natural RNA segment, single round, ends assumed
# Constant ends, left off below: GGGAGUUCUACAGUCCGACGAUC … UGGAAUUCUCGGGUGCCAA
# Target sequence (chain): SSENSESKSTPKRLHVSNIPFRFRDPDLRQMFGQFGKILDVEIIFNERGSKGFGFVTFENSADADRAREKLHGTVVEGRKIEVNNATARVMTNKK
Oligonucleotide,RBNS enrichment (R)
GACUUUGGGGGCAGAAAACCCUAUAAGUAUAACCAAGAGGAAAGUUUUUCACUAAGAAUUUAGUUAAAUUGUCUUUACUAUACAGCAAGAAAUCUCUUUAGAAGAAACUU,0.519
GGUUGGAGUGGUGCGGGAGCAGGCUGCCGAGUGGAGGGUGCCAUCGAGGGCUCCGGAUCCCUUAUCCUACUUAGCAGUGUUGGUCUCUGGGGCUGGAAGCCGAGCGCAUG,4.95
UUGAUGCCUUCUGUCUUUUCAUGAUAAUGUGCUAACAAGUUGUGUUAAUAUUUUACUCAGCCAGAGUCUCAUUCAUUUGCUAAGCAUUGGGAACAUUAUGUAUAUUGACC,0.249
CCCUGCCCAGGAGCACAGCUUGCUGCUGAGGGCUGGGUGUGACCGUGUCUGCCUCUGGCUGCUGGGAGAAGCUGUUUUUCAGUUUCAGAAGCAGGCAGGACAAAGGCCAG,1.77
GCCCCUCCUGAAAGGAUGGAAGGAAACCACCUCCAUCGGUACUCCAAAGUUCUUGAAGCCCACUUGGGAGACCCGAAACCUCGGCCCCUGCCAGCCUGUCCACAUUUGUC,0.456
CCUUAAAACUUAUUGGAUUAUGAAUGUUAUCAGAGUACUGAAUUGUAUCAAUUUGUUUGCAGUUAAUAUCAGCUUUGAUAGUCAUGUACCUUGACAUAGUGAAGGACACU,0.571
GUGAGCAACUCUGUGGCUAGCAAAAGAGAAGUUUAUUUGUGCCCAGCCAUUGGUCACCUUGGGUGAUGCACCAGAUAGCAGGCAGAUGUUGGUUCAUUGGCCUUCGUCCU,0.26
AAUGCAGGGCCCCUUUCUGAUCUCACCAUUUCACCAUGCAUCUUGGAAUUCAGUAAGUGCAUAUCCUAACUUGCCCAUAUUCUAAAUCAUCUGGUUGGUUUUCAGCCUAG,1.53
UAAGAGUUUAUGUGAAGUAUACAUCUUUGUACUUGGAAGAGUCUAAGUUGUUUAUAUUUGGUAAAAGGUUCAUUUGUCCCUUUUAGCUCUUAAAUAUCUCGAUGUAUUUA,1.67
UACGGGGCAGGGCUCAGUCCUGACGCUUGCCACCUGCUCCUACCCGGCCAGGAUGGCUGAGGGCGGAGUCUAUUUUACGCGUCGCCCAAUGACAGGACCUGGAAUGUACU,0.755
AAUUUUAAAAAGCUACUAGUGAGAAACCAAAUGAUAGGUUGUAGAGCCUGAUGACUCCAAACAAAGCCAUCACCCGCAUUCUUCCUCCUUCUUCUGGUGCUACAGCUCCA,0.326
GGACAUCCACUGCCACGCCAAACUCAACUUACCAAUACAUUACGGCCUUGAAAGGGAGCAGAGAGUGGCUGGAGAAUCAAUUCUGACACCGGCUAAAGUUGCAGCUGUUG,0.411

# Some of these lines once more (set 1):
Oligonucleotide,fitted relative affinity [z-score]
TACGGTCTCCTTCTCCTGACGTGCTAG,0.421
TTAGATTCCAGCTTCGATTAGTGCTAG,0.0807
GACGGTTTCGGGTATCGCGACGTGCTA,9.52
TTGGATTTCAGTCTCGATTAGTGCTAG,4.24
TTAGTTTTCGGTCTCGGTTAGTGCTAG,6.13
